Published values of several laboratories.
Lines come from different studies, so protocols differ. “And” joins repeats or separate records; there may be more than shown. ± marks the error that the study gave.

SMILES | assay | system | conditions | scale | measurement | result
O=C1OC[C@H]2OC(O)[C@H](O)[C@@H](O)[C@@H]2OC(=O)c2cc(O)c(O)c(O)c2-c2c(O)c(O)c3oc(=O)c4c(c(O)c(O)c5oc(=O)c2c3c54)-c2c1cc(O)c(O)c2O (mixture of isomers) | subacute oral toxicity | BALB/c mice | oral, 1000 mg/kg/day, 28 days |  | spleen weight | 0.08 g
COc1cccc(Oc2ccccc2NC(=O)CNC(=O)c2cccc3ccccc23)c1 |  | esterase-deficient SCID mice, male | oral, 40 mg/kg/day, 14 days, toxicity study |  | serum chloride | 103 mmol/L and 109 mmol/L and 115 mmol/L
C1=Cc2nc1cc1ccc([n-]1)c(C1CC1)c1nc(cc3ccc([n-]3)c2C2CC2)C=C1.CC(=O)[O-].[Mn+3] | LC-MS/MS | Sprague-Dawley rat, plasma | oral gavage, dose not given, 30 min |  | plasma concentration | 98 ng/mL and 252 ng/mL
O=C(Nc1ccccc1)C1CCN(C(=O)Oc2cccnc2)CC1 | adverse event reporting | healthy women | oral, 100 mg, 9 days |  | subjects with pain in extremity | 0%
Cn1ncc(-c2nc(N[C@H]3CC[C@H](N)CC3)ncc2Cl)c1CC1CC1 | phase I dose escalation | human patients | dose not given, any-grade TEAE | relative to: patients | acute respiratory failure incidence | 3%
COc1cc(C(=O)NC2CCN(C)CC2)c(F)cc1Nc1ncc(C(F)(F)F)c(Oc2cccc3c2C(=O)N(C)C3)n1 |  | human patients, urine | oral, 300 mg single dose, geometric mean | relative to: dose | fraction excreted in urine (0-24 h) | 6.48%
COc1cc2c(Oc3ccc4[nH]c(C)cc4c3F)ccnc2cc1OCC1(N)CC1 |  | paediatric recurrent refractory sarcoma | 8 mg/kg |  | grade 1 or 2 sinus bradycardia | 6.7%
CCCCCOc1ccc(-c2ccc(-c3ccc(C(=O)N[C@H]4C[C@@H](O)[C@@H](OCC[N+](C)(C)C)NC(=O)[C@@H]5[C@@H](O)[C@@H](C)CN5C(=O)[C@H]([C@@H](C)O)NC(=O)[C@H]([C@H](O)[C@@H](O)c5ccc(O)cc5)NC(=O)[C@@H]5C[C@@H](O)CN5C(=O)[C@H]([C@@H](C)O)NC4=O)cc3)cc2)cc1 |  | adult ICU patients, mITT, serum | dose not given, Follow-up |  | aspartate aminotransferase | 16.5 U/L
[2H]C([2H])([18F])[C@]([2H])(N)C(=O)O | PET | athymic nude mice, U-87 MG, tumor | dose not given, 20 min post-injection |  | tissue uptake | 1.59 ± 0.05 %ID/cc
CC(C)(C)c1cc(-n2nc3ccccc3n2)c(O)c(C(C)(C)C)c1 | exposure assessment | human, age 3-6 years, sunscreen |  |  | dermal uptake | 1.91 ng/kg body weight/day
CN1C(=O)[C@@H](NC(=O)c2nnc(Cc3ccccc3)[nH]2)COc2cccnc21 | phase I multiple ascending dose | human, male and female | oral, 600 mg, 14 days |  | participants with TEAE leading to death | 0%
C[C@]12C=CC(=O)C=C1C(CSC[C@H](N)C(=O)O)C[C@@H]1[C@@H]2CC[C@]2(C)C(=O)CC[C@@H]12 (stereo partly shown) |  | postmenopausal women, serum | UGT2B17 and GSTA1 genotypes |  | share of modified total exemestane metabolites | 22%
CCCCCCCCCCCCCN(C)C | extrapolated from shorter analogues |  |  |  | pKa | 10
NC(=O)[C@H]1CCN(c2ncnc(N)c2F)C[C@@H]1N1CCC[C@@H](Nc2cc(Cl)cc(C(F)(F)F)c2)C1=O |  | B-cell malignancy patients | oral, 410 mg twice daily, dose |  | grade ≥3 leukopenia | 0%
O=S(=O)(Nc1ccccc1)c1ccc(NC(=S)Nc2ccccc2)cc1 | refers to: CK | male mouse, blood | oral, 5 mg/kg daily, 14 days |  | serum enzyme activity | 2570 U/L
CC(C)Nc1ccnc(Nc2cccc(-c3cccnc3)c2)n1 | refers to: sodium | mouse, blood | intraperitoneal, 5 mg/kg |  | blood chemistry | 159 mmol/L
O=C1Nc2cc3[nH]nc(-c4ccncc4)c3cc2CN1Cc1ccccc1 | CTCAE v4.03 | advanced solid tumour patients | intravenous, 4.8 mg/kg |  | patients with diarrhoea | 33%
C[C@]1(CO)Cc2ncn(-c3ccc(C#N)c(Cl)c3)c2C(=O)O1 |  | healthy humans | concentration not given, multiple dose part total |  | drug-related Dizziness incidence | 4.4%
C=CC(=O)N1CC[C@H](n2nc(C#Cc3cc(OC)cc(OC)c3)c3c(N)ncnc32)C1 |  | patients with advanced solid tumours | oral, dose not given, Vomiting, any grade, QD, together with: lanthanum carbonate hydrate |  | adverse drug reaction incidence | 16.7%

SMILES | assay | system | conditions | scale | measurement | result
Cc1ccc(F)c2cc(C(=O)N[C@@H]3CCC[C@H](N4CC[C@H](N(C)S(C)(=O)=O)C4)C3)[nH]c12 |  | CD1 mouse | oral, 100 mg/kg |  | MRT(0-inf) | 4.2 h
CC(C)CC(=O)OC[C@H]1O[C@@](C#N)(c2ccc3c(N)ncnn23)[C@H](O)[C@@H]1O | plasma protein binding | monkey plasma | 0.9 µM, time not given |  | recovery | 100%
COc1ccc(-c2c(-c3ccc(C#N)c(F)c3)nc(N3CCC(N)CC3)n(C)c2=O)cc1F | refers to: Vomiting | neuroendocrine neoplasm patients | oral, 60 mg, grade 3 to 4, dose expansion |  | treatment-related adverse event incidence | 0%
CC(C)C[C@H](NC(=O)[C@H](CCCCN)NC(=O)OCC1c2ccccc2-c2ccccc21)C(=O)N[C@H](C(=O)N[C@@H](Cc1ccccc1)C(=O)N[C@@H](Cc1ccccc1)C(=O)N[C@@H](CCCCN)C(=O)NCC(=O)N[C@@H](Cc1ccccc1)C(=O)N[C@@H](C)C(=O)N[C@@H](Cc1c[nH]c2ccccc12)C(=O)N[C@@H](CC(N)=O)C(=O)N[C@H](C(=O)N[C@H]1CSSC[C@@H](C(=O)N[C@@H](Cc2c[nH]cn2)C(=O)N[C@@H](CCCNC(=N)N)C(=O)N[C@@H](CCCNC(=N)N)C(=O)N[C@@H](C)C(=O)N[C@@H](CC(N)=O)C(N)=O)NC(=O)[C@H](C(C)C)NC(=O)[C@H](CCCNC(=N)N)NC(=O)[C@H](C(C)C)NC(=O)CNC(=O)[C@H](CC(N)=O)NC(=O)[C@H](CCCNC(=N)N)NC(=O)[C@H](Cc2ccc(O)cc2)NC(=O)[C@H](C(C)C)NC1=O)C(C)C)C(C)C |  | ICR mouse, blood | intramammary, 10 mg/kg, day 5, 3 d dosing |  | MCV | 41 ± 0.77 fL
COc1ncccc1-c1cnn2ccc(N3CCN(C(=O)OC(C)C)CC3)nc12 |  | mouse nerve ligation model, brain | oral, 10 mg/kg, 30 min after last dose, repeat dosing day 5 |  | drug concentration | 8.7 µM
CC(C)[C@@H]1NC(=O)CNC(=O)[C@H](CC(N)=O)NC(=O)[C@H](CCCNC(=N)N)NC(=O)[C@H](Cc2ccc(O)cc2)NC(=O)[C@H](C(C)C)NC(=O)[C@@H](NC(=O)[C@@H](NC(=O)[C@H](CC(N)=O)NC(=O)[C@H](Cc2c[nH]c3ccccc23)NC(=O)[C@H](C)NC(=O)[C@H](Cc2ccccc2)NC(=O)CN)C(C)C)CSSC[C@@H](C(=O)N[C@@H](Cc2cnc[nH]2)C(=O)N[C@@H](CCCNC(=N)N)C(=O)N[C@@H](CCCNC(=N)N)C(=O)N[C@@H](C)C(=O)N[C@@H](CC(N)=O)C(N)=O)NC(=O)[C@H](C(C)C)NC(=O)[C@H](CCCNC(=N)N)NC1=O |  | ICR mouse, blood | intramammary, 5 mg/kg, day 5, 3 d dosing |  | MCV | 40.7 ± 1.09 fL
Clc1ccc(-c2ccccc2)cc1 |  | rat Sprague-Dawley female, serum | inhalation, 23 µg/rat, 2 h |  | serum free thyroxine | 38 ± 16 pmol/L
C[C@]1(O)C[C@@](N)(c2ccc(-c3nc4n(c3-c3ccccc3)COc3ccncc3-4)cc2)C1 |  | human, advanced or metastatic solid tumours | 24 mg intermittent, phase I dose escalation |  | patients with Hyperglycemia TEAE | 25%
CC(=O)c1c(C)c2cnc(Nc3ccc(C4CCN(CCS(C)(=O)=O)CC4)cn3)nc2n(C2CCCC2)c1=O |  | human, dose-escalation trial, plasma | oral, 50 mg twice daily, day 21, multiple doses |  | AUC(0-t) | 856 ng·h/mL
CO[C@H]1C[C@@H]2CC[C@@H](C)[C@@](O)(O2)C(=O)C(=O)N2CCCC[C@H]2C(=O)O[C@H]([C@H](C)C[C@@H]2CC[C@@H](OC(=O)NCCOCCOCCOCCOCCOCCOCCOCCOCCC(=O)N3CCc4cc(Cn5nc(-c6ccc7oc(N)nc7c6)c6c(N)ncnc65)ccc4C3)[C@H](OC)C2)C[C@@H](O)[C@H](C)/C=C(\C)[C@@H](O)[C@@H](OC)C(=O)[C@H](C)C[C@H](C)/C=C/C=C/C=C/1C |  | patients with advanced solid tumours | intravenous, 1.6 mg/3 mg weekly, grade ≥3 |  | Fatigue AE leading to dose reduction | 0%
Cn1cc(-c2nc(N[C@@H]3CCCC[C@@H]3N)c(F)c3c2C(=O)NC3)cn1 | refers to: Hematuria | patients with relapsed or refractory AML | oral, 80 mg twice daily |  | hemorrhagic adverse events | 33%
O=C(O)CCCOc1ccc(F)cc1-c1cc(-c2ccccc2C(F)(F)F)n(-c2ccccc2)n1 |  | female Crl:CD(SD) rats, lungs | intravenous, 25 µg/kg, 1 d |  | relative organ weight | 0.46 ± 0.03 g%
Nc1ncnc2c1ncn2[C@@H]1O[C@@H]2COP(=O)([S-])O[C@@H]3[C@H](O)[C@@H](COP([O-])(=S)O[C@H]2[C@H]1O)O[C@H]3n1cnc2c(N)ncnc21.[Na+].[Na+] (stereo partly shown) |  | non-tumor-bearing mice, blood | intravenous, 1 mg/kg, toxicity study |  | plateletcrit | 0.06 ± 0.05%
COc1cc2c(OCCCC#N)c3c(c(-c4ccc5c(c4)OCO5)c2cc1OC)C(=O)OC3 |  | mouse | oral |  | CL/F | 0.311 L/h
CCCCCCCCCCCCCCCC(=O)N[C@@H](CCC(=O)NCCCC[C@H](NC(=O)[C@H](CC(=O)O)NC(=O)[C@H](CO)NC(=O)[C@@H](NC(=O)[C@H](Cc1ccccc1)NC(=O)[C@@H](NC(=O)CNC(=O)[C@H](CCC(N)=O)NC(=O)[C@H](CO)NC(=O)[C@@H](N)Cc1c[nH]cn1)[C@@H](C)O)[C@@H](C)O)C(=O)N[C@@H](CO)C(=O)N[C@@H](CCC(=O)O)C(=O)N[C@@H](Cc1ccc(O)cc1)C(=O)N[C@@H](CC(C)C)C(=O)N[C@@H](CC(=O)O)C(=O)N[C@@H](CO)C(=O)N[C@@H](CCC(=O)O)C(=O)N[C@@H](CCCNC(=N)N)C(=O)N[C@@H](C)C(=O)N[C@@H](CCCNC(=N)N)C(=O)N[C@@H](CC(=O)O)C(=O)N[C@@H](Cc1ccccc1)C(=O)N[C@H](C(=O)N[C@@H](C)C(=O)N[C@@H](Cc1c[nH]c2ccccc12)C(=O)N[C@@H](CC(C)C)C(=O)N[C@@H](CCC(=O)O)C(=O)N[C@@H](C)C(=O)NCC(=O)NCC(=O)O)C(C)C)C(=O)O | refers to: Hyperglycaemia | humans CrCl 45 to 60 mL/min | subcutaneous, 100 µg single dose |  | treatment-related adverse events | 0%
COc1cc2c3c(n(CCCN4CCOCC4)c(=O)c2cc1OC)-c1cc2c(cc1C3=O)OCO2 |  | rat | intravenous slow bolus, once daily for 5 days |  | maximum tolerated dose | 24 mg/m²/d
Oc1ccc(Cl)c(-c2cc(Cl)c(Cl)cc2Cl)c1Cl | enantioselective gas chromatography | racemized sample | column temperature 160 °C |  | enantiomeric fraction | 0.5
COc1ccnc(C(=O)N[C@H]2COC(=O)[C@H](Cc3ccccc3)[C@@H](OC(=O)C(C)C)[C@H](C)OC2=O)c1OCOC(=O)C(C)C |  | lactating goat, kidney | dose not given, outcome not detected |  | share of TRR | not detected
